Published values gathered from unrelated publications.
Parts stem from different laboratories: compare values within a part only. Changes are numbered by the printed parent chain.

Study 1 — method: DHFR PCA, deep sequencing; medium: yeast; added: (+)-ABA 1.4 µM; relative to: wild-type fitted maximum; reading: higher = stronger binding
Target: ABI1, truncated, D143A, DHFR fusion (Arabidopsis thaliana)
Setting: methotrexate growth selection, single substitutions
Starting sequence: PYL1, truncated, DHFR fusion (Arabidopsis thaliana); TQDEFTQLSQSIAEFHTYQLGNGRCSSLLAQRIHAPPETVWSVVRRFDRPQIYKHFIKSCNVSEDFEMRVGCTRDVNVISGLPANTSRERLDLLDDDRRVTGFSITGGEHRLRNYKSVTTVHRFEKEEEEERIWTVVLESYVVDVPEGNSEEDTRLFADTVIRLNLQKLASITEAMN
For `Q51W`, “relative binding score” read 1.72%.
`V143S`: “relative binding score” -8.11%.
Under “relative binding score”, `R88A` is recorded as 24.1%.
`Y18R` — result for “relative binding score”: 10%.
`R46Y`: “relative binding score” -34.2%.
`F5M`: “relative binding score” 68.9%.
For `E151D`, “relative binding score” read 34.7%.
For `G81M`, “relative binding score” read -3%.
`R99A` — result for “relative binding score”: 9.51%.
For `A13K`, “relative binding score” read 53.1%.
`L156Y`: “relative binding score” 12.9%.
`T135I`: “relative binding score” -6.21%.
Under “relative binding score”, `I12S` is recorded as -4.66%.
For `T101Q`, “relative binding score” read -3.25%.
`E67L` — result for “relative binding score”: 22.1%.
Under “relative binding score”, `R98I` is recorded as 24.8%.
For `D75N`, “relative binding score” read 58.2%.
For `E151Y`, “relative binding score” read 16.9%.
`D97Q` — result for “relative binding score”: 65.1%.
`E38L` — result for “relative binding score”: 15.2%.

Study 2 — method: aptamer microarray, sandwich; form: DNA with 2'F-ANA; medium: in vitro; tested at: 200 nM; added: Cy3 exosite-II aptamer, 400 nM; reading: higher = stronger binding; oligonucleotide: GGTTGGTGTGGTTGG
Target: Prothrombin, mature alpha-thrombin (F2, Homo sapiens, UniProt P00734)
Setting: whole 15-mer aptamer, many near background
Under “mean fluorescence intensity”, `2'F-ANA at 1 2 3 5 6 7 8 10 13 15` is recorded as 47.9 a.u.
`2'F-ANA at 1 3 4 6 7 8 9 12 13 15`: “mean fluorescence intensity” 259 a.u.
Under “mean fluorescence intensity”, `2'F-ANA at 1 2 3 4 6 7 9 10 13` is recorded as 52.1 a.u.
`2'F-ANA at 6 8 11 15`: “mean fluorescence intensity” 417 a.u.
`2'F-ANA at 5 7 9 10 11 13 14`: “mean fluorescence intensity” 44.2 a.u.
Under “mean fluorescence intensity”, `2'F-ANA at 1 2 3 4 6 8 12 13 14 15` is recorded as 74.6 a.u.
`2'F-ANA at 2 5 6 10 12 13 15`: “mean fluorescence intensity” 49.1 a.u.
`2'F-ANA at 3 4 5 7 8 9 10 11 14` — result for “mean fluorescence intensity”: 53.2 a.u.
`2'F-ANA at 2 3 4 7 12 13` — result for “mean fluorescence intensity”: 850 a.u.
Under “mean fluorescence intensity”, `2'F-ANA at 2 4 6 7 9 10 11 13 14 15` is recorded as 87.3 a.u.
`2'F-ANA at 1 2 3 5 7 9 10 11 13 14`: “mean fluorescence intensity” 51.1 a.u.
`2'F-ANA at 2 3 4 5 9 10 12 13 15` — result for “mean fluorescence intensity”: 57.6 a.u.
For `2'F-ANA at 1 4 5 6 7 8 11 14`, “mean fluorescence intensity” read 58.8 a.u.
`2'F-ANA at 1 2 3 4 5 6 9 13`: “mean fluorescence intensity” 50.7 a.u.
`2'F-ANA at 1 3 4 5 6 7 10 12 13`: “mean fluorescence intensity” 49.7 a.u.
For `2'F-ANA at 2 3 5 8 12 14`, “mean fluorescence intensity” read 62.8 a.u.
`2'F-ANA at 1 2 4 5 7 9 10 11 12 15`: “mean fluorescence intensity” 50.5 a.u.

Study 3 — method: RNA Bind-n-Seq; form: RNA; medium: in vitro; tested at: 365 nM; relative to: no-protein control; reading: higher = stronger binding
Target: RNA binding protein fox-1 homolog 2, RRM domain, GST-SBP tag (RBFOX2, Homo sapiens, UniProt O43251-10, residues 100-194)
Setting: natural RNA segment, single round, ends assumed
Constant ends, left off below: GGGAGUUCUACAGUCCGACGAUC … UGGAAUUCUCGGGUGCCAA
Target sequence (chain): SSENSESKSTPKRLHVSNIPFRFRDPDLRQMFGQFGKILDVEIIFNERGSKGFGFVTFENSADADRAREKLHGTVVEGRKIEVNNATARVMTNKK
`CUUCUCUAAACAUCCUACAGAGAAGGUUCCAAAGCUGAGCACCCAUCACCCUAGGUGUGCACCAGACUCCUAUUAGCCCCUCCUUCCAGGAGCUAGAACCAGGGAGGUCC` — result for “RBNS enrichment (R)”: 0.202.
Under “RBNS enrichment (R)”, `UAAUGACCGUUCUGUGUCCCAUGUAUGUCUCUGACCAUCCACAGCCGCCCCUCCUCCAUACCCCAGGGAUAAUUUUUCCUUCAAACCUUCCCUUUCCAAGGGACACUGGG` is recorded as 0.555.
For `UUGUUGAGGUACCAUAUAGCCAGGGUGCUAGGUGAUGAGUGGUGUUAGCAUGUGCAAUAGGAACUACUGGUUUGCUGUGUAAAUGGAUGUCAGGAUCCAGCAAAACUACU`, “RBNS enrichment (R)” read 21.1.
`UCUGUAGACUUUUUCUUCUGGCCCUUGUCCCUGCCAGCAAAACGCCCCUUUUCUGAUCAUUCGUGCGCAGAGGGCCUCCCAGUAAUGCCACGCUCUCCAUGCUAGAGAGC` — result for “RBNS enrichment (R)”: 1.09.
`GCCAGACUGCCUCACCCUCUGCCCUAAUCAGCAGGGUGGGCCUGCCUUUUGCUAAGCGAUCUCUAUGCCUGGGAUGCCCUUUAUUCCAGGAGGCAUCAAGCCUCUAAAGA` — result for “RBNS enrichment (R)”: 0.344.
Under “RBNS enrichment (R)”, `CCAGAGGCUCAAAGCCAGAACCUCCUGCAUGUUGGACAAGCACUCUACCAACUGAGCUACAUCCCCAGCCUUCAGUCCCCACCCCCGAGUCCAGAGACAGGUCUCAUGUG` is recorded as 0.443.
For `AUGGGAAGGGAAAGGGGAGAAGAAAUUGACAUUUAUUUUAUUAUUUAUUUUAAAUGUUUACAUUUCUUUGUGUUGUUCCAAGCCUGAAUAGAAACAGAUAGCAUUAAAGU`, “RBNS enrichment (R)” read 9.21.
For `AAAGUCAAGCAUCACUUAAGACAUGCCCAGGGCUCCAGCUUGCCCUCAGCAGUCCUUCAGGACUUCUGGUUCCUUCCGCCACCCUUCUCAAGAUUCUAGAAAUCAAAGGA`, “RBNS enrichment (R)” read 0.449.
`AGACUGCCUGCCUUGGAGGGGUCACAUGAGGGAGACCUGUGCCUGAUUUCAUUAGGAAAUCCAUUCUGUUAUUUUUUGGUGCUGUUGGCUACUUUAUCAAAAAACCCUUC`: “RBNS enrichment (R)” 1.15.
For `UCUUCACCCCUCCCUAGAUCUCACCUAAACAUGCUGUCCCUAAUAAAGCUGGAUAAGAAGCUGCUGUAGUGGGUGUCCCAUGUGCCUGGACGUCUGGGCAUGGGGAUGAG`, “RBNS enrichment (R)” read 0.291.
Under “RBNS enrichment (R)”, `GCUCUCAAUCCCCAACAUUUGAUAGUCUUAGCAUUUAAACAAAAUCUCCGAGUGAGGGAGGCCAGCCCCCACAUUUGUCCUCUGCAGGCUCAUUUUGUUGAGCGUCUGCU` is recorded as 1.51.
`UCCAAGGAGCGAGGAGGGCAAGCGGCCUCCCAGCUCCCUGGUACCUCGAGGCACCAUUCCAGCCAGGGACGCUGCCGGGUAGACUCUCCACUCCCCCUGCCGCCCACACU`: “RBNS enrichment (R)” 0.352.

Study 4 — target: CCNB1, cyclin fold, Cln2 fusion (human); method: yeast growth competition, sequencing; medium: yeast; setting: strong parent motif; relative to: not given; reading: higher = stronger binding
Starting sequence: PKN2 docking peptide (human); VSAVQKLDFSDTM
`L7R` — result for “normalised enrichment score”: 0.429.
`D8R` — result for “normalised enrichment score”: 0.755.
For `S2G`, “normalised enrichment score” read 1.86.
Under “normalised enrichment score”, `S10D` is recorded as 3.07.
`S2P`: “normalised enrichment score” 0.834.
`A3Q`: “normalised enrichment score” 0.0764.
For `M13T`, “normalised enrichment score” read 2.07.
For `K6R`, “normalised enrichment score” read 2.25.
`D8S`: “normalised enrichment score” 1.01.
`D11H` — result for “normalised enrichment score”: 0.969.
`M13L` — result for “normalised enrichment score”: 2.2.
`D11Q` — result for “normalised enrichment score”: 0.906.
`S10A` — result for “normalised enrichment score”: 1.59.
For `F9C`, “normalised enrichment score” read 0.115.
For `D11I`, “normalised enrichment score” read 0.198.
Under “normalised enrichment score”, `M13G` is recorded as 2.1.

Study 5 — method: protein-binding microarray; form: double-stranded DNA, one strand shown; medium: in vitro; tested at: 2540 nM top; setting: 60-bp whole probe; added: salmon DNA 0.4 mg/ml; relative to: random background probes; reading: higher = stronger binding; constant ends, left off below: GCCTAGCAC … GTCTTGATTCGCTTGACGCTGCTG
Target: Interferon regulatory factor 3, full length, phosphomimetic (IRF3, Homo sapiens, UniProt Q14653, residues 1-427, S386D/S396D/S398D/S402D/T404D/S405D)
Residues (chain): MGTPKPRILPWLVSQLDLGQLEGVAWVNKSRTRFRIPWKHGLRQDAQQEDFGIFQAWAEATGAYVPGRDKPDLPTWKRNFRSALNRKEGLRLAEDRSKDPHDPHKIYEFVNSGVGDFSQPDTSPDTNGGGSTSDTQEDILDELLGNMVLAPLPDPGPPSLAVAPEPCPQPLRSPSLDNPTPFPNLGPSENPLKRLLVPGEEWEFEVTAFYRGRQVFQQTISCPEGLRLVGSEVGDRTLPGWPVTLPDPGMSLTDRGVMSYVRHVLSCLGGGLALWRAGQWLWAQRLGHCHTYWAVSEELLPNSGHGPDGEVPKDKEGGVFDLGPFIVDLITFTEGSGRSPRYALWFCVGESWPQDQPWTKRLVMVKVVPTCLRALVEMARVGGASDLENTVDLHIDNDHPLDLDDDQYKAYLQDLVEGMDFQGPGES
For `TTTCCTTTACATTCCCCATTGTGCTAG`, “fitted relative affinity” read 7.69 z-score.
`TCATAAATGATATATATCACTGTGCTA`: “fitted relative affinity” 0.401 z-score.
For `TTAGGAGTGCTTATCCTTTAGTGCTAG`, “fitted relative affinity” read -0.169 z-score.
For `TCATTATTAAAACTTCATACTGTGCTA`, “fitted relative affinity” read 0.726 z-score.
`TTGGAACTGGGGACTGGATTAGTGCTA` — result for “fitted relative affinity”: -1.1 z-score.
For `TTAGGTATCGACACGGGGTTAGTGCTA`, “fitted relative affinity” read -0.0237 z-score.
`GACGGTATTCTTATCCTGACGTGCTAG`: “fitted relative affinity” 0.866 z-score.
`TCACATTTCCTTTACATACTGTGCTAG`: “fitted relative affinity” 3.15 z-score.
`GACGGATCCCTTTTCCTGACGTGCTAG`: “fitted relative affinity” 5.93 z-score.
Under “fitted relative affinity”, `TGTCATTTACATTTTAGTAGGTGCTAG` is recorded as 1.33 z-score.
For `GACGGTATCCTTCGCCTGACGTGCTAG`, “fitted relative affinity” read 1.28 z-score.
Under “fitted relative affinity”, `TTGCAGATGACGAAACTGAAGTGCTAG` is recorded as 0.245 z-score.
Under “fitted relative affinity”, `GAGAGAGCTTGTCTGCAGCCGTGCTAG` is recorded as -0.941 z-score.
`AGAGTTCCAGACAGCTCCCTGTGCTAG` — result for “fitted relative affinity”: 0.579 z-score.
For `GACGGTTTCCTTTTCGTGACGTGCTAG`, “fitted relative affinity” read 11.3 z-score.
`TTACAACTGGGGTATCGATTAGTGCTA`: “fitted relative affinity” -0.126 z-score.
`GACGATATCGGGTTACGAGACGTGCTA`: “fitted relative affinity” 0.412 z-score.
Under “fitted relative affinity”, `TTAGATCTCAGTTTAGATTAGTGCTAG` is recorded as 0.954 z-score.
Under “fitted relative affinity”, `GATGTTTTGAGTTTTCCTTCGTGCTAG` is recorded as 1.39 z-score.
For `GACGGTCTCCTTATTCTGACGTGCTAG`, “fitted relative affinity” read 2.45 z-score.
`TTTGCTCTGTGCATAGGTCTGTGCTAG`: “fitted relative affinity” -0.39 z-score.
For `AGACAGAAGGGAAACAGGTTGGTGCTA`, “fitted relative affinity” read 2.22 z-score.
For `TCAAGGTTGTTTCTAATACTGTGCTAG`, “fitted relative affinity” read 0.591 z-score.
Under “fitted relative affinity”, `ATGTAATTCCTGCCTGAGCTCGTGCTA` is recorded as -0.332 z-score.
`ATATACCTGTATATCTTCAGGTGCTAG` — result for “fitted relative affinity”: 0.515 z-score.

For quick reference, copied from above (study 1):
`E38L` — result for “relative binding score”: 15.2%.
`R99A` — result for “relative binding score”: 9.51%.
Under “relative binding score”, `R98I` is recorded as 24.8%.
Under “relative binding score”, `R88A` is recorded as 24.1%.
`Y18R` — result for “relative binding score”: 10%.
For `A13K`, “relative binding score” read 53.1%.
`E67L` — result for “relative binding score”: 22.1%.
`L156Y`: “relative binding score” 12.9%.
Under “relative binding score”, `I12S` is recorded as -4.66%.
`D97Q` — result for “relative binding score”: 65.1%.
`R46Y`: “relative binding score” -34.2%.
For `D75N`, “relative binding score” read 58.2%.
For `E151D`, “relative binding score” read 34.7%.
